{"data": "Experimental data pooled from the literature", "HTR2C": "5-hydroxytryptamine receptor 2C (HTR2C, Homo sapiens, UniProt P28335)", "note": "Lines come from different studies, so protocols differ.", "chain of UniProt P28335 (whole entry, looked up)": "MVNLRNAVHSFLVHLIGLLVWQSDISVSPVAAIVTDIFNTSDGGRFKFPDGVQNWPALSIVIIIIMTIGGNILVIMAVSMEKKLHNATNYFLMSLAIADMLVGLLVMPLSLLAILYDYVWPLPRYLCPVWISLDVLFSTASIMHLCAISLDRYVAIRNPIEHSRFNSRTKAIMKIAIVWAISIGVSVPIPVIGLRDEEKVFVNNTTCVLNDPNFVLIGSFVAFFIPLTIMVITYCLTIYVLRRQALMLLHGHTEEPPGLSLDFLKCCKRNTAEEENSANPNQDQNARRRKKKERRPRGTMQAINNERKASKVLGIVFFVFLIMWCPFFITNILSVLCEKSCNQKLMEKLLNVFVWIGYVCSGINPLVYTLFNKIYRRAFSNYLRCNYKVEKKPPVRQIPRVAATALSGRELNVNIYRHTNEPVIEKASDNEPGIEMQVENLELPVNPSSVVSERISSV", "chain of UniProt O00506 (whole entry, looked up)": "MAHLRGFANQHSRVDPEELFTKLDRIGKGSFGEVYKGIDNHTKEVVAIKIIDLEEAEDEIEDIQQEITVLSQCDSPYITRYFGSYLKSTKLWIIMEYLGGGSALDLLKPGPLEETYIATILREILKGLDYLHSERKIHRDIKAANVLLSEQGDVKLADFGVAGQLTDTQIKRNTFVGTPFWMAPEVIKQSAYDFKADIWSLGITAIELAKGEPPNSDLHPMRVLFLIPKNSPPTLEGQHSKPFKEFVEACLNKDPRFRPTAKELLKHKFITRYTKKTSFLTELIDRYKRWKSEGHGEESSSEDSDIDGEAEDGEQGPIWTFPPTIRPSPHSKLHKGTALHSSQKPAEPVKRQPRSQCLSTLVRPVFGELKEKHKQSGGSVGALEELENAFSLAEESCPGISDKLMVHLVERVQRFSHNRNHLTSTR", "chain of UniProt P21333 (whole entry, looked up)": "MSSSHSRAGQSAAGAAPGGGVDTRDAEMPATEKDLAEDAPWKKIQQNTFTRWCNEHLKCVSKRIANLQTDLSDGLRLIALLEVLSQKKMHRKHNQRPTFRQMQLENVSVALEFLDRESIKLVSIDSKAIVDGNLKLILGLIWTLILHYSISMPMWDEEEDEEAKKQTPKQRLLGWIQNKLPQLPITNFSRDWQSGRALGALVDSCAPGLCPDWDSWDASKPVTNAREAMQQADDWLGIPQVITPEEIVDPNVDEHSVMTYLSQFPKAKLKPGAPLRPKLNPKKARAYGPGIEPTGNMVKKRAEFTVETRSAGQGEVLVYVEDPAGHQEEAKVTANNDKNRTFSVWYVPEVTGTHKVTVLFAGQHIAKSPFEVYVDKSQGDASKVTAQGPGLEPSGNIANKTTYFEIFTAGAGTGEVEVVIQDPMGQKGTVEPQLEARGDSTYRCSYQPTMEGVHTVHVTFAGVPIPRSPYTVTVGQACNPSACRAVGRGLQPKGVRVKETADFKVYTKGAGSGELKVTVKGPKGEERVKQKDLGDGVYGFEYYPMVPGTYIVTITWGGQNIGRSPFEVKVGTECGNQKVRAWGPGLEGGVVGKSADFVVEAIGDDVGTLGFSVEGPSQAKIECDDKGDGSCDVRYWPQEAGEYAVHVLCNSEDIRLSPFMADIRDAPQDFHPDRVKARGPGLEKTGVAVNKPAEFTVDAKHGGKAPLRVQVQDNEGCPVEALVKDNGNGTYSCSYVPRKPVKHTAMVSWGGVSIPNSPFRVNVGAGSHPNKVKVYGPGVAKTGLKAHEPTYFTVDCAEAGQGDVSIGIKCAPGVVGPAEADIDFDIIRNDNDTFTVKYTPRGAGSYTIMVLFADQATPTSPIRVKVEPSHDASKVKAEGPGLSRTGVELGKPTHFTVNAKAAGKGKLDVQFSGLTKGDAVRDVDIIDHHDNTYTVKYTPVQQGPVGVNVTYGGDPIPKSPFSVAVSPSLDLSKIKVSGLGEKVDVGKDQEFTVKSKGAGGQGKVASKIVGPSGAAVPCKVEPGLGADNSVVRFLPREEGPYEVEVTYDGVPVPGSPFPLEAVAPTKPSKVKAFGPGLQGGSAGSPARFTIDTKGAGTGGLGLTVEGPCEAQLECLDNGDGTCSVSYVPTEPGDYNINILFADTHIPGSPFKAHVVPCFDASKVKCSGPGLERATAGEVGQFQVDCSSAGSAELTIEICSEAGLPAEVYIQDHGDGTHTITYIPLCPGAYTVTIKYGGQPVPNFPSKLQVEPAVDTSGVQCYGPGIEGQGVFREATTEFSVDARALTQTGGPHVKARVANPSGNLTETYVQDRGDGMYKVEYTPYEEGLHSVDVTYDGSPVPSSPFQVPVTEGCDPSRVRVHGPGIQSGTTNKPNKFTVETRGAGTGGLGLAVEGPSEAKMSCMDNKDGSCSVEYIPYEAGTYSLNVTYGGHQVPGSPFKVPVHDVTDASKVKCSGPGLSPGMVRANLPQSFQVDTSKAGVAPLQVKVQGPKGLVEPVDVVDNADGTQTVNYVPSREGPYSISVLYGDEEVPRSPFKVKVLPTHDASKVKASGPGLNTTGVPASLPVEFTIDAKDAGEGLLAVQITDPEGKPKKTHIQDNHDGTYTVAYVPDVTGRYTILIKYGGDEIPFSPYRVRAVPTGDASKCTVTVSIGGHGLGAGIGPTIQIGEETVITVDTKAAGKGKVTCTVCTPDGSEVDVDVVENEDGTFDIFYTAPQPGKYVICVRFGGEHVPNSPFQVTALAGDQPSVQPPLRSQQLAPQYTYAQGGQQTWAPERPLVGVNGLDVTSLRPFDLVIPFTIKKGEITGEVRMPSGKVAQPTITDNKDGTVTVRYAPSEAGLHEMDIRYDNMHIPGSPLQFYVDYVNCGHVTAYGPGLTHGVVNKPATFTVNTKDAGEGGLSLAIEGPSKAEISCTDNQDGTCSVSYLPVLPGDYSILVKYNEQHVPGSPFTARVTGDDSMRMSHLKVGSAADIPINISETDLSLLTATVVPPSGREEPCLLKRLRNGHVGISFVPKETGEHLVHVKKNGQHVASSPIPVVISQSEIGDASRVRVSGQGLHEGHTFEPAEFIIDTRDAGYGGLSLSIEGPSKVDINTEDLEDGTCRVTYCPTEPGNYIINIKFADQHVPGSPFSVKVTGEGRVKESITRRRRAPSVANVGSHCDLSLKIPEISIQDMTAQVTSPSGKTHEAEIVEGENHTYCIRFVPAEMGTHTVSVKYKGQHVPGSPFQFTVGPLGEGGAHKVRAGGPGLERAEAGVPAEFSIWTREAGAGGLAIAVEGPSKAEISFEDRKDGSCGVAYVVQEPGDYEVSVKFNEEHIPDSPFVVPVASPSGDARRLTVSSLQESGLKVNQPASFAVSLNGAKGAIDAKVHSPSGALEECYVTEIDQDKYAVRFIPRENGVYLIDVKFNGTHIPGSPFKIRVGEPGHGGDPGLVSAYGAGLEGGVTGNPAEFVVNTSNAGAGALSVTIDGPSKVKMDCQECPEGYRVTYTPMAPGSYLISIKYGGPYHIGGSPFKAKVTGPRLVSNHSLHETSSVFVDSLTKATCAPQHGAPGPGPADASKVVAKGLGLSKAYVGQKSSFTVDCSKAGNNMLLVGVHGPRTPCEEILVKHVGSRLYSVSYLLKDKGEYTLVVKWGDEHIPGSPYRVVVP", "chain of UniProt Q8NFN8 (whole entry, looked up)": "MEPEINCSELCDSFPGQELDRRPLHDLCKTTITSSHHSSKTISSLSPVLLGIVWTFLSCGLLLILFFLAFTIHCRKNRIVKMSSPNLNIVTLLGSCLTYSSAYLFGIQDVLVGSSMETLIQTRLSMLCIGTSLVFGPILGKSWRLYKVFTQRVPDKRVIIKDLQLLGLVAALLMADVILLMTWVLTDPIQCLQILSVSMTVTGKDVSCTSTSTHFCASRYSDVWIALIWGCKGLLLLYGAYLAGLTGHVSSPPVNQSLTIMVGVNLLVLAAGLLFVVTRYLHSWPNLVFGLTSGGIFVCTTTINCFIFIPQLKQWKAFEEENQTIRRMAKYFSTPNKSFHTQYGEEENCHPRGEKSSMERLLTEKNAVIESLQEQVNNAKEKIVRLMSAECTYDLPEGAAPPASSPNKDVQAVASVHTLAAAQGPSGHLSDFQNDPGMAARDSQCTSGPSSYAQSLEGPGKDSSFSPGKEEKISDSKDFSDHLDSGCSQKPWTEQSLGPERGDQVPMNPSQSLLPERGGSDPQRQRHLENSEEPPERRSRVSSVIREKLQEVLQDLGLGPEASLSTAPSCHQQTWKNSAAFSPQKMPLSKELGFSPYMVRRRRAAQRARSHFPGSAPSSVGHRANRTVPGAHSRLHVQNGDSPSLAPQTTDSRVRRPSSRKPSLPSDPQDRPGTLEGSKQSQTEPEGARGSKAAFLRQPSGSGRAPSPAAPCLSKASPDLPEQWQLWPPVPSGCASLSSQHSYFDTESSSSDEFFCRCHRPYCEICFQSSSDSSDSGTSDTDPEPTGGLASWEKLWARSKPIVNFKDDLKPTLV", "chain of UniProt O75716 (whole entry, looked up)": "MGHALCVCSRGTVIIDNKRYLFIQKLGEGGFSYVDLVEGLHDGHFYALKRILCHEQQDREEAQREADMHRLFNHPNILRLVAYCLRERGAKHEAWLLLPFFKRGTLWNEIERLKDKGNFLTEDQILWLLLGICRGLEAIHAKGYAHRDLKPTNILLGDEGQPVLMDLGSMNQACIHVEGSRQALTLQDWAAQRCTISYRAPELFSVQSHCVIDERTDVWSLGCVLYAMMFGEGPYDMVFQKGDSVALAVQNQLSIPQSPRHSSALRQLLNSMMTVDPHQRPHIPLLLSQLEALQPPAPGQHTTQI", "chain of UniProt Q9H1Y3 (whole entry, looked up)": "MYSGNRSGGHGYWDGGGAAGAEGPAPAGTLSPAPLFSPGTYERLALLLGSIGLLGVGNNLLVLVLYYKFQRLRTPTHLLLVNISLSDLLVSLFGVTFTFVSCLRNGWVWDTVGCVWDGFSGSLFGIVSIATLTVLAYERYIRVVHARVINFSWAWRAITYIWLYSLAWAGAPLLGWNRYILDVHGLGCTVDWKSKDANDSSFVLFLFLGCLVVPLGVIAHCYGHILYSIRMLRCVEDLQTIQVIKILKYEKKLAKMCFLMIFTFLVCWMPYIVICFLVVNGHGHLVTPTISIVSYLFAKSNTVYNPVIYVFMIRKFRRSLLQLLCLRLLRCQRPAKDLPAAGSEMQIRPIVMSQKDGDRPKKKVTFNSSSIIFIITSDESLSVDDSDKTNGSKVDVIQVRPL"}
{"Compound": "COc1ccc(N2C(=O)N(c3c(C)cccc3Cl)Cc3cnc(Nc4ccc(C5CCN(C)CC5)cc4OC)nc32)nc1", "target or system": "STK25 (Homo sapiens, UniProt O00506)", "assay": "kinase activity", "conditions": "0.5 µM", "endpoint": "inhibition", "value": "15%"}
{"Compound": "C[C@H]1CN(c2n[nH]c3nc(N[C@H]4CC[C@H](NS(=O)(=O)CCC(F)(F)F)CC4)ncc23)CCO1", "target or system": "Filamin-A (Homo sapiens, UniProt P21333)", "assay": "competitor, Kinobeads competition", "test system": "human cell extract", "conditions": "0.032 µM", "scale": "baseline: vehicle", "endpoint": "relative abundance", "value": 1.48}
{"Compound": "CN1CCN(c2cc(-c3ccncc3)c(-c3ccc4ccccc4c3)nn2)CC1", "target or system": "HTR2C", "assay": "antagonist, FLIPR", "conditions": "10 µM", "endpoint": "inhibition", "value": "-9.6%"}
{"Compound": "C[C@@H](O)[C@@H](CO)NC(=O)[C@@H](CCCNC(=N)N)NC(=O)[C@@H]1CCCN1C(=O)[C@@H]1CSSC[C@H](NC(=O)[C@H](Cc2ccccc2)NC(=O)CN2CCN(CC(=O)O)CCN(CC(=O)O)CCN(CC(=O)O)CC2)C(=O)N[C@@H](Cc2ccc(O)cc2)C(=O)N[C@@H](Cc2ccccc2)C(=O)N[C@@H](CCC(N)=O)C(=O)N[C@@H](CC(N)=O)C(=O)N1 [gallium-68 labelled]", "test system": "Wistar rat, healthy, sublingual gland", "conditions": "intravenous, 8 MBq, 60 min", "endpoint": "tissue uptake", "value": "0.15 %ID/g"}
{"Compound": "CC[C@H](C)[C@@H]1NC(=O)[C@@H]2CCCN2C(=O)[C@H](CC(C)C)NC(=O)[C@H](CC(C)C)NC(=O)CNC(=O)[C@@H](NC(=O)[C@@H](NC(=O)[C@H](CC(=O)O)NC(=O)CNC(=O)[C@@H](NC(=O)[C@H](C)NC(=O)CNC(=O)[C@H](CCCCN)NC(=O)[C@H](CC(C)C)NC(=O)[C@H](CC(C)C)NC(=O)[C@H](CCCCN)NC(=O)CNC(=O)[C@@H](NC(=O)[C@@H](N)CC(C)C)C(C)C)C(C)C)C(C)C)CSSC[C@@H](C(=O)O)NC1=O", "assay": "RNA-seq, measured: Tes mRNA", "test system": "mouse traumatic brain injury, frontal cortex and hippocampus", "conditions": "dose not given", "scale": "baseline: TBI plus compound vs TBI", "endpoint": "log2 fold change", "value": -1.78}
{"Compound": "[2H]c1c([2H])c([C@]2([2H])CCCN2C(=O)C(C)(C)Oc2ccc3cn[nH]c3c2)c([2H])c([2H])c1C([2H])([2H])[2H]", "target or system": "STK16 (Homo sapiens, UniProt O75716)", "assay": "KINOMEscan", "conditions": "1 µM", "scale": "baseline: DMSO control", "endpoint": "remaining binding", "value": "88%"}
{"Compound": "O=C(c1ccc(Cl)cc1)N1CCN2C(=O)N(OC(=O)N3CCOc4ccccc43)C(=O)C2C1 (stereo not drawn)", "target or system": "Platelet-activating factor acetylhydrolase IB subunit alpha1 (Homo sapiens, UniProt Q15102)", "assay": "enzyme activity, inhibitor, MS-based ABPP", "test system": "SW-620 in situ", "conditions": "10 µM, 2 h, 37 °C", "scale": "baseline: compound over DMSO, lower = stronger inhibition", "endpoint": "median ratio", "value": 1.05}
{"Compound": "CC[C@H](C)[C@H](NC(=O)[C@H](Cc1ccccc1)NC(=O)[C@H](CCC(=O)O)NC(=O)[C@H](CCCNC(=N)N)NC(=O)[C@H](C)NC(=O)[C@H](C)NC(=O)[C@H](CCC(N)=O)NC(=O)[C@H](CCC(=O)O)NC(=O)[C@H](CCC(=O)O)NC(=O)[C@H](CC(C)C)NC(=O)[C@H](Cc1ccc(O)cc1)NC(=O)[C@H](CO)NC(=O)[C@H](CO)NC(=O)[C@@H](NC(=O)[C@H](CC(=O)O)NC(=O)[C@H](CO)NC(=O)[C@@H](NC(=O)[C@H](Cc1ccccc1)NC(=O)[C@@H](NC(=O)CNC(=O)[C@H](CCC(=O)O)NC(=O)[C@H](C)NC(=O)CCc1c[nH]cn1)[C@@H](C)O)[C@@H](C)O)C(C)C)C(=O)N[C@@H](C)C(=O)N[C@@H](Cc1c[nH]c2ccccc12)C(=O)N[C@@H](CC(C)C)C(=O)N[C@H](C(=O)N[C@@H](CCCNC(=N)N)C(=O)NCC(=O)N[C@@H](CCCNC(=N)N)C(=O)N[C@@H](CCCCNC(=O)COCCOCCNC(=O)COCCOCCNC(=O)CC[C@H](NC(=O)CCCCCCCCCCCCCCCCC(=O)O)C(=O)O)C(=O)NCC(=O)NCC(=O)N[C@@H](CO)C(=O)N[C@@H](CCCCNc1c(NCCCCCN(O)C(=O)CCC(=O)NCCCCCN(O)C(=O)CCC(=O)NCCCCCN(O)C(C)=O)c(=O)c1=O)C(=O)O)C(C)C [zirconium-89 labelled]", "test system": "rat, brain", "conditions": "iv, 3 nmol/kg, 168 h, ex vivo", "endpoint": "tissue uptake", "value": "0.01 %ID/g"}
{"Compound": "Oc1ccc2c3c1O[C@H]1[C@@H](O)CC[C@@]4(O)[C@@H](C2)N(CC2CCC2)CC[C@]314", "target or system": "Opsin-3 (OPN3, Homo sapiens, UniProt Q9H1Y3)", "assay": "β-arrestin recruitment, TANGO luminescence, measured: OPN3", "conditions": "concentration not given", "scale": "baseline: basal luminescence", "endpoint": "log2 fold change", "value": 0.068}
{"Compound": "COc1cc(CCNC(C)c2ccccc2O)c(OC)cc1C#N (single isomer, unassigned; (+))", "target or system": "HTR2C", "assay": "Gq dissociation, agonist, BRET", "scale": "baseline: 5-HT", "endpoint": "Emax", "value": "109%"}
{"Compound": "CO[C@H]1C[C@@H]2CC[C@@H](C)[C@@](O)(O2)C(=O)C(=O)N2CCCC[C@H]2C(=O)O[C@H]([C@H](C)C[C@@H]2CC[C@@H](OC(=O)NCCOCCOCCOCCOCCOCCOCCOCCOCCC(=O)N3CCc4cc(Cn5nc(-c6ccc7oc(N)nc7c6)c6c(N)ncnc65)ccc4C3)[C@H](OC)C2)C[C@@H](O)[C@H](C)/C=C(\\C)[C@@H](O)[C@@H](OC)C(=O)[C@H](C)C[C@H](C)/C=C/C=C/C=C/1C", "test system": "patients with advanced solid tumours", "conditions": "intravenous, 6 mg weekly, any grade", "endpoint": "decreased appetite incidence", "value": "75%"}
{"Compound": "COc1cc(N)c(Cl)cc1C(=O)NC1CN2CCC1CC2 (stereo not drawn)", "target or system": "Probable G-protein coupled receptor 156 (GPR156, Homo sapiens, UniProt Q8NFN8)", "assay": "β-arrestin recruitment, TANGO luminescence, measured: GPR156", "conditions": "concentration not given", "scale": "baseline: basal luminescence", "endpoint": "log2 fold change", "value": 0.013}
